Measured values of several laboratories.
Parts stem from different laboratories: compare values within a part only.

Block 1 — technique: protein-binding microarray; form: double-stranded DNA, one strand shown; sample: in vitro; tested at: not given; direction: higher = stronger binding
Target: Hepatocyte nuclear factor 3-beta, forkhead domain (FOXA2, Homo sapiens, UniProt Q9Y261, residues 142-269)
Notes: k-mer, scored over probes, only values ≥0.25
Residues (chain): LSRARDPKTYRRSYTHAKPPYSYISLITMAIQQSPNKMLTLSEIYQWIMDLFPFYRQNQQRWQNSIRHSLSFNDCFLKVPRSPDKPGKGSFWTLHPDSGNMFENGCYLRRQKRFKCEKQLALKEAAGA
Strand	E-score
ATCTACTA	0.319
AATAAGTA	0.328
GTATTTAA	0.334
CCTGTTAC	0.254
ACACAAGC	0.256
AATGGTAA	0.301
AAATACAG	0.32
AATAGTTG	0.284
GTATGTGA	0.273
AATAGAAT	0.269
CTGATAAA	0.288
GTTTAGTA	0.254
AATACATC	0.324
AAATTGTT	0.254
TGATTAAA	0.289
AGAACAAA	0.34
ATATCGAT	0.277
ATGTAATG	0.342
AATATGAA	0.333
ACTGTACA	0.258

Block 2 — technique: DNA-protein interaction ELISA; form: double-stranded DNA, one strand shown; sample: in vitro, bacterial lysate; tested at: not given; notes: whole dsDNA probe, crude lysate protein; reference: highest signal in screen; direction: higher = stronger binding
Target: Probable WRKY transcription factor 50, DNA-binding domain (WRKY50, Arabidopsis thaliana, UniProt Q8VWQ5, residues 99-173)
Target sequence (chain): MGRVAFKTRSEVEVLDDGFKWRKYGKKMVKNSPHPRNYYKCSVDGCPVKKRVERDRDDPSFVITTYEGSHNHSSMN
Strand	relative absorbance
AAAAAAAATACTGCGCACTTGCACTCAAAA	37.5 % of maximum
AAAAAAATGCGCCCTTTCTGACATAAAAAA	13.2 % of maximum
AAAAAATGCCCTTTTTATCTTTATGTAAAA	21.3 % of maximum
AAAAAACTGGTGTATCTCCTCAATTAAAAA	24.8 % of maximum
AAAAAACTTCTAGTTTATGCTTCCGTAAAA	45.7 % of maximum
AAAAAAGCCGTGGGTGATGGTCACAGAAAA	10.5 % of maximum
AAAAAAGGCGGTCGTAGTTGTGGGAGAAAA	18.4 % of maximum
AAAAAATGTCCATCTTGCGTCTGTATAAAA	42.3 % of maximum
AAAAAAATTACGCGGGATCGCCAAAA	15.2 % of maximum
AAAAAATACTGGCTGTCTCGTTCACAAAAA	11.3 % of maximum
AAAAAAATGTTCAAGCTCGATCTACAAAAA	11.8 % of maximum
AAAAAAGTCCGCCCTTAATTCATATTAAAA	78.5 % of maximum
AAAAAAGCTAGTGCTGCCACCAACGTAAAA	11.9 % of maximum
AAAAAACGCATCATAGCTACGCCCCAAAAA	11.1 % of maximum
AAAAAATTCACTTTTACCTTTGTGTTAAAA	36.9 % of maximum
AAAAAACGGGATTCGAAACTTTTTGTAAAA	14.8 % of maximum
AAAAAAGGCTTCCACTTTGAGTTTGCAAAA	18.1 % of maximum
AAAAAACCTACGATGGTTCTGATCTTAAAA	14.7 % of maximum
AAAAAATCATCTCTATGTTATTGTTGAAAA	12.7 % of maximum
AAAAAAACTATAGTCTTTGTCATGATAAAA	18.1 % of maximum
AAAAAAACTCACGGCGTCACTATGGTAAAA	15.1 % of maximum
AAAAAATTGCACCTGATACTAGGGTTAAAA	22.1 % of maximum
AAAAAAATTGTATCATACTTCAGTTGAAAA	10.6 % of maximum
AAAAAATTCCTGTCCGCTCTCGCTCCAAAA	58.7 % of maximum
AAAAAATTGGTTCTCATTTCTACTTCAAAA	26.2 % of maximum

Block 3 — technique: protein binding microarray; form: double-stranded DNA, one strand shown; sample: in vitro; tested at: not given; reference: not given; direction: higher = stronger binding
Target: Histone acetyltransferase KAT6A, winged helix 1, GST fusion (KAT6A, Homo sapiens, UniProt Q92794, residues 1-85)
Notes: 8-mer, flanks averaged, mean of 2 arrays, mostly near background
Target sequence (chain): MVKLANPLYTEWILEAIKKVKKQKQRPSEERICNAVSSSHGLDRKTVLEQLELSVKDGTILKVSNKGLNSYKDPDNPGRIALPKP
Strand	E-score
AACGACGT	0.0708
AGGCGCTC	0.224
AGCGGACT	0.113
TCGACCGA	0.171
ACCTTCAC	-0.118
CGAGCTAA	-0.0468
CGTAGACC	0.148
CGGAAGCA	0.0872
ATACATGG	-0.197
AAGCAAGA	-0.158
AGAGGGTA	-0.149
ATACATAA	-0.246
GCTGGGTA	-0.0731
ACTGTTCA	-0.0103
ACCCTTCG	-0.0582
CGGATGTC	0.315
AAAAATCC	-0.0748
GATAGAAC	-0.108

Block 4 — technique: competition protein-binding microarray; form: double-stranded DNA, one strand shown; sample: in vitro; tested at: 2 µM; added: Pho4 competitor, 0.05 µM; direction: higher = stronger binding; constant ends, left off below: … GTCTTGATTCGCTTGACGCTGCTG
Target: Centromere-binding protein 1, full length, His-tagged (CBF1, Saccharomyces cerevisiae, UniProt P17106, residues 1-351)
Chain of UniProt P17106 (whole entry, looked up): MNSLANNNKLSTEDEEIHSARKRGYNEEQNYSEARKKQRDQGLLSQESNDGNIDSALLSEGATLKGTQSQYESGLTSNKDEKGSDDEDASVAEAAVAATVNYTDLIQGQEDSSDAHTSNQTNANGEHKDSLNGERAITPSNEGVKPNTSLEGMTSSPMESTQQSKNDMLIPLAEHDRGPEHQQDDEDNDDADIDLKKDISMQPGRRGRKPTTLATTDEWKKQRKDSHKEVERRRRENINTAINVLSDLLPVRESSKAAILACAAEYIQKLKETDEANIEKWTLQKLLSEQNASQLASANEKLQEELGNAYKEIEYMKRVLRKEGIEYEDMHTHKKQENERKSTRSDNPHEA
Notes: whole 60-bp probe, lowest competitor level
Strand	fluorescence intensity
CGTCCTAGTGATTGCCGGGTGGGTGCCATGAGGAAG	76.2 a.u.
TGCGCAATGGAGAAACACGGGTGGCATAGGTCTGCG	72.3 a.u.
TCCTTAATGCCCAAGCACATGGGTCAGGGTTCATTA	77.3 a.u.
AAAGCGGTAATTTGGGCAGTGGGTGCAGATATCTAT	78.4 a.u.
ATTAAAATCATTTAGTCCTTTATCTCTTATCCTTTT	102 a.u.
GTCTTGTCTCATTGGAGAGTGGGTGTCCCCACTTCA	100 a.u.
CATACCCAACCTTGACGTGTGGGTGAAGATATTTGT	79 a.u.
GTCTTGTCTCATTTTCACGTGCAATTCCCCACTTCA	878 a.u.
AATAAAACAAGGCGCCATGTGACAGTTTCCAAAAGG	691 a.u.
TTAAGTCTATTATCAAGCATGATAACCATCATCAAT	102 a.u.
CTTCTGTAAATTTGTGTGGTGGGTGGACGCGCCCCG	80.6 a.u.
GAAACGTCGGGTAGTTTCGTGCCGACTTAAGTGCCT	55.1 a.u.
GGAGACGTCGCCTTTCTCGTGAAGGCTGGCGGGGTA	70.7 a.u.
CGGGGTTAAGTTTGTCACTCGACTTGCTTGCAGCAG	53.3 a.u.
ACCCAACAATTAAAATCCGTGATGGTTTAATGGTCA	128 a.u.
GCTGTGTGAGCGGCCCTCGTGGCTCGGGAGGTGCTG	81.9 a.u.
ATACAGCCCACTGCACACATGGTGATAAAGAGAATT	95.9 a.u.
ATAACGTTGCTTTTGCACGTGTAGTTCGCTGCTTAG	774 a.u.
GAAAAATTAATCCGACATGTGGAATATTTCCTTCCG	140 a.u.
AAAGCGGTAATTTGAGCAGTGGGTGCAGATATCTAT	65.7 a.u.
AACCGAATGGCATCGCACGCTATGCAACTAATGACC	87.2 a.u.
TCCAGAAGAAGAAACGACGTGCCGAGGTCCATTCCA	54.5 a.u.
CTTTCCCGATCTTGTATCGTGGGTGTAGCACATTTG	72.8 a.u.
CTTTCCCGATCTTGTGCAGTGGGTGTAGCACATTTG	77.1 a.u.

Block 5 — technique: aptamer microarray, sandwich; form: DNA with 2'F-ANA; sample: in vitro; tested at: 200 nM; added: Cy3 exosite-II aptamer, 400 nM; direction: higher = stronger binding; strand: GGTTGGTGTGGTTGG
Target: Prothrombin, mature alpha-thrombin (F2, Homo sapiens, UniProt P00734)
Notes: whole 15-mer aptamer, many near background
Modification	mean fluorescence intensity [a.u.]
2'F-ANA at 3 4 6 7 8 12 15	999
2'F-ANA at 2 4 5 6 8 9 13	71.7
2'F-ANA at 2 4 6 7 10 11 12 14 15	57.6
2'F-ANA at 2 5 6 7 8 9 10 15	55.4
2'F-ANA at 2 4 5 6 8 14 15	154
2'F-ANA at 1 2 3 4 6 7 8 10 11 12 14	54.2
2'F-ANA at 2 4 6 7 10 11	74.7
2'F-ANA at 1 5 8 12 14	45.6
2'F-ANA at 2 4 7 10 11 13 15	92.7
2'F-ANA at 3 5 6 7 9 11 12 14 15	55.4
2'F-ANA at 1 2 4 5 6 8 9 11 14 15	51.1
2'F-ANA at 1 6 8 12 14 15	76.8
2'F-ANA at 1 4 5 7 8 9 13 15	48.7
2'F-ANA at 3 4 5 7 9 10 11 12 13 14	53
2'F-ANA at 1 3 4 5 10 11	46.8
2'F-ANA at 2 8 10 12 13	149
2'F-ANA at 2 4 7 11 14 15	109
2'F-ANA at 4 9 13 14 15	72.6
2'F-ANA at 1 5 7 8 9 10 11 12 14	47.9
2'F-ANA at 1 2 3 4 5 7 9 10 11 13 14 15	48.7
2'F-ANA at 4 7 9 10 11 12	114

A few entries again (block 5):
Modification	mean fluorescence intensity [a.u.]
2'F-ANA at 2 5 6 7 8 9 10 15	55.4
2'F-ANA at 2 4 5 6 8 14 15	154
2'F-ANA at 1 2 3 4 6 7 8 10 11 12 14	54.2
2'F-ANA at 2 4 6 7 10 11	74.7
2'F-ANA at 1 5 8 12 14	45.6
2'F-ANA at 2 4 7 10 11 13 15	92.7
2'F-ANA at 3 5 6 7 9 11 12 14 15	55.4
2'F-ANA at 1 2 4 5 6 8 9 11 14 15	51.1
2'F-ANA at 1 6 8 12 14 15	76.8
2'F-ANA at 1 4 5 7 8 9 13 15	48.7
2'F-ANA at 3 4 5 7 9 10 11 12 13 14	53
2'F-ANA at 1 3 4 5 10 11	46.8
2'F-ANA at 2 8 10 12 13	149
2'F-ANA at 2 4 7 11 14 15	109
2'F-ANA at 4 9 13 14 15	72.6
2'F-ANA at 1 5 7 8 9 10 11 12 14	47.9
2'F-ANA at 1 2 3 4 5 7 9 10 11 13 14 15	48.7
2'F-ANA at 4 7 9 10 11 12	114
